{"data": "Values quoted from earlier work, collected from citations in different studies", "note": "Lines come from different studies, so protocols differ. Numbers after ± are the reported error.", "UniProt P42336, sequence (whole entry, unmodified, looked up)": "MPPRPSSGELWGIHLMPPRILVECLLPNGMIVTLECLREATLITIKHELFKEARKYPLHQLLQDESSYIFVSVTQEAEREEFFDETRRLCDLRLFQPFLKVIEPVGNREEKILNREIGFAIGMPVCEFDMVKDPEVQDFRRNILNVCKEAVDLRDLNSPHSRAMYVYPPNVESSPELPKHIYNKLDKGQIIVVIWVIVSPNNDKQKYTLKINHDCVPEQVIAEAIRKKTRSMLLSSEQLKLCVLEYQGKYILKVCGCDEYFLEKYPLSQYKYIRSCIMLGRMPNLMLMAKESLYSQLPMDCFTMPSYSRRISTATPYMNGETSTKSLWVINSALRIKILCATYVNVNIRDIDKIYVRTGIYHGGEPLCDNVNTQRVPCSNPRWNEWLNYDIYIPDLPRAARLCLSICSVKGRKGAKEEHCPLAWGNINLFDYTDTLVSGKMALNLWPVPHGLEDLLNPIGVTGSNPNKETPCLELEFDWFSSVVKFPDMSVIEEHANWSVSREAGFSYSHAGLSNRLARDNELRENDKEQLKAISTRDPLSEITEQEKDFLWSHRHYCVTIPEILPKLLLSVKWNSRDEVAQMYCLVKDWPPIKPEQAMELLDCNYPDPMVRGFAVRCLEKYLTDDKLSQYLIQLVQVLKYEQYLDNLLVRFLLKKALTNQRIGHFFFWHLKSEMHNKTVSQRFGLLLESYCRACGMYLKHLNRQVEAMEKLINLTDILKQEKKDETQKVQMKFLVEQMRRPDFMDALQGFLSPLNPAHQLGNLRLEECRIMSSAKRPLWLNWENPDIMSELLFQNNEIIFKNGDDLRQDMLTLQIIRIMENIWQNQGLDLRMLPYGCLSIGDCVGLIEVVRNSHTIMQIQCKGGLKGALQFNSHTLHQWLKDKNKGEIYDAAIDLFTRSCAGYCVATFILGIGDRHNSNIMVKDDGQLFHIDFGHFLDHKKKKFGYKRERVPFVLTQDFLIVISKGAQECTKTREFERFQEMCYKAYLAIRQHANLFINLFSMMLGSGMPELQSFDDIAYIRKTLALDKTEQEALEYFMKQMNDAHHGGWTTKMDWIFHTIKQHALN", "UniProt Q9Y616, sequence (whole entry, looked up)": "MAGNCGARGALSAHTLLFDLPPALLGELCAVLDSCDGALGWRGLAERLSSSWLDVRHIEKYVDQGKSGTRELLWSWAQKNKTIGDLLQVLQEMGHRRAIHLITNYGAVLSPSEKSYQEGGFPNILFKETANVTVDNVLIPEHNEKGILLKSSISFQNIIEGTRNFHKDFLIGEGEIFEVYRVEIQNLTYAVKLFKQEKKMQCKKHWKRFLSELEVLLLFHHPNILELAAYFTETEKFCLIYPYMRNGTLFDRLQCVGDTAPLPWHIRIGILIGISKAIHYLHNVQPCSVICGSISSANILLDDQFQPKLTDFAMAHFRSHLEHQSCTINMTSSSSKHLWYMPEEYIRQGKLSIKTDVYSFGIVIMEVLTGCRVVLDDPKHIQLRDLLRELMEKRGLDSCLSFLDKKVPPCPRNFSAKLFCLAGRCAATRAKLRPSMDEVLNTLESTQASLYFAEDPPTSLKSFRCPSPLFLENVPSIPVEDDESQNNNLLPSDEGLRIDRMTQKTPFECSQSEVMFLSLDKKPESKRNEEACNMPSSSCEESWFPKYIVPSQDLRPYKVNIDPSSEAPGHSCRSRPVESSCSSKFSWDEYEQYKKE"}
{"SMILES": "C=CC(=O)Nc1cc(Nc2ncc(C(=O)OC(C)C)c(-c3cn(C)c4ccccc34)n2)c(OC)cc1N(C)CCN(C)C", "system": "human, NSCLC patients", "setting": "dose not given, all doses", "quantity": "grade 3 adverse events", "result": "42%"}
{"SMILES": "N#C[C@@]1(c2ccc3c(N)ncnn23)O[C@H](CO)[C@@H](O)[C@H]1O", "system": "dog", "setting": "oral, 5 mg/kg, solution, unadjusted NCATS data", "quantity": "Cmax", "result": "17.2 µM"}
{"SMILES": "CC(C)C[C@@H](NC(=O)[C@H](C)NC(=O)CNC(=O)[C@@H](NC=O)C(C)C)C(=O)N[C@@H](C)C(=O)N[C@@H](C(=O)N[C@H](C(=O)N[C@@H](C(=O)N[C@@H](Cc1c[nH]c2ccccc12)C(=O)N[C@H](CC(C)C)C(=O)N[C@@H](Cc1c[nH]c2ccccc12)C(=O)N[C@H](CC(C)C)C(=O)N[C@@H](Cc1c[nH]c2ccccc12)C(=O)N[C@@H](C(=O)N[C@@H](Cc1c[nH]c2ccccc12)C(=O)NCCO)C(C)C)[C@H](C)O)C(C)C)C(C)C", "assay": "hemolysis", "system": "rabbit red blood cells", "quantity": "HC10", "result": "> 3000 nM"}
{"SMILES": "Cc1nc(NC(=O)N2CCC[C@H]2C(N)=O)sc1-c1ccnc(C(C)(C)C(F)(F)F)c1", "system": "human", "quantity": "median Tmax", "result": "2 to 4 h"}
{"SMILES": "CC(C)(C)OC(=O)c1ccc(O)cc1", "setting": "pH 7.4", "quantity": "logD", "result": 2.83}
{"SMILES": "Nc1cccc2c1C(=O)N(C1CCC(=O)NC1=O)C2=O (stereo not shown)", "system": "relapsed refractory multiple myeloma patients", "setting": "dose not given, grade 3-4", "quantity": "pneumonia incidence", "result": "8%"}
{"SMILES": "Nc1cc(C(F)(F)F)c(-c2nc(N3CCOCC3)nc(N3CCOCC3)n2)cn1", "target or system": "IRAK3 (Homo sapiens, UniProt Q9Y616)", "assay": "enzyme activity", "setting": "10 µM", "scale": "reference: untreated", "quantity": "remaining activity", "result": "68%"}
{"SMILES": "Cc1cc(Nc2ccc(S(F)(F)(F)(F)F)cc2)n2ncnc2n1", "system": "10 mM HCl", "setting": "pH 2", "quantity": "kinetic solubility", "result": "71 µM"}
{"SMILES": "CC(O)(P(=O)(O)O)P(=O)(O)OP(=O)(O)OC[C@H]1O[C@@H](n2ccc(N)nc2=O)[C@@H](O)[C@@H]1O (stereo partly shown)", "system": "human serum", "setting": "concentration not given, 37 °C", "quantity": "hydrolysis half-life", "result": "5.7 h"}
{"SMILES": "C[C@]12CC[C@@H]3c4ccc(O)cc4C[C@@H](CCCCCCCCC[S+]([O-])CCCC(F)(F)C(F)(F)F)[C@H]3[C@@H]1CC[C@@H]2O (stereo partly shown)", "system": "human patients, plasma", "setting": "dose not given", "quantity": "steady-state plasma level", "result": "28 ng/mL"}
{"SMILES": "CC1(C)S[C@@H]2[C@H](NC(=O)[C@H](N)c3ccccc3)C(=O)N2[C@H]1C(=O)O", "target or system": "Pseudomonas aeruginosa", "system": "clinical isolate RKI-No_696/15", "quantity": "MIC", "result": "> 16 µg/mL"}
{"SMILES": "CCN1CCN(Cc2ccc(Nc3ncc(F)c(-c4cc(F)c5nc(C)n(C(C)C)c5c4)n3)nc2)CC1", "system": "human", "setting": "150 mg twice daily, with endocrine therapy", "quantity": "Css,max", "result": "249 ng/mL"}
{"SMILES": "O=C(CCCN1CC=C(n2c(=O)[nH]c3ccccc32)CC1)c1ccc(F)cc1", "target or system": "HepG2", "assay": "mitochondrial membrane potential", "setting": "concentration not given, Tox21", "quantity": "activity outcome", "result": "inactive"}
{"SMILES": "CNC(C)C1CCC(N)C(OC2C(N)CC(N)C(OC3OCC(C)(O)C(NC)C3O)C2O)O1 (stereo not shown)", "target or system": "Pseudomonas aeruginosa", "system": "clinical isolate RKI-No_321/16", "quantity": "MIC", "result": "2 µg/mL"}
{"SMILES": "CCOc1c([C@H](C)n2nc(C)c3c(N)ncnc32)cc(Cl)c(F)c1[C@@H]1CNC(=O)C1", "system": "human", "setting": "oral, 20 mg once daily, added: rifampin", "scale": "reference: compound alone", "quantity": "Cmax decrease", "result": "43%"}
{"SMILES": "CCCC(CCC)C(=O)O", "assay": "pericardial and yolk oedema", "system": "zebrafish embryo", "setting": "nominal concentration", "quantity": "EC10", "result": "38000 nM"}
{"SMILES": "C[C@H]1COCCN1c1nc(-c2cnc(N)cc2C(F)F)nc(N2CCOCC2)n1", "target or system": "panel of 66 cancer cell lines", "assay": "cell growth", "setting": "panel mean", "quantity": "GI50", "result": "433 nM"}
{"SMILES": "COc1cc(N2CCC(N3CCN(C)CC3)CC2)ccc1Nc1ncc(Cl)c(Nc2ccccc2P(C)(C)=O)n1", "system": "patients with cancer, plasma", "setting": "dose not given, geometric mean", "quantity": "AUC(0-24) at steady state", "result": "16200 ng·h/mL"}
{"SMILES": "CCCCCCCCCCCCCCCC(=O)N[C@@H](CCC(=O)NCCCC[C@H](NC(=O)[C@H](C)NC(=O)[C@H](C)NC(=O)[C@H](CCC(N)=O)NC(=O)CNC(=O)[C@H](CCC(=O)O)NC(=O)[C@H](CC(C)C)NC(=O)[C@H](Cc1ccc(O)cc1)NC(=O)[C@H](CO)NC(=O)[C@H](CO)NC(=O)[C@@H](NC(=O)[C@H](CC(=O)O)NC(=O)[C@H](CO)NC(=O)[C@@H](NC(=O)[C@H](Cc1ccccc1)NC(=O)[C@@H](NC(=O)CNC(=O)[C@H](CCC(=O)O)NC(=O)[C@H](C)NC(=O)[C@@H](N)Cc1cnc[nH]1)[C@@H](C)O)[C@@H](C)O)C(C)C)C(=O)N[C@@H](CCC(=O)O)C(=O)N[C@@H](Cc1ccccc1)C(=O)N[C@H](C(=O)N[C@@H](C)C(=O)N[C@@H](Cc1c[nH]c2ccccc12)C(=O)N[C@@H](CC(C)C)C(=O)N[C@H](C(=O)N[C@@H](CCCNC(=N)N)C(=O)NCC(=O)N[C@@H](CCCNC(=N)N)C(=O)NCC(=O)O)C(C)C)[C@@H](C)CC)C(=O)O", "system": "overweight or obese adults", "setting": "3.0 mg", "quantity": "breast cancer incidence", "result": "0.6%"}
{"SMILES": "CCN(c1cc(-c2ccc(CN3CCOCC3)cc2)cc(C(=O)NCc2c(C)cc(C)[nH]c2=O)c1C)C1CCOCC1", "system": "adult patients", "setting": "dose not given, clinical trials", "quantity": "AML/MDS incidence", "result": "0.6%"}
{"SMILES": "Cc1ccc(C)c(OCCCC(C)(C)C(=O)O)c1", "system": "healthy volunteers", "setting": "dose not given", "quantity": "AUC", "result": "75000 ng·h/mL"}
{"SMILES": "O=C(Nc1ccc(-c2nc(-c3ccc(Cl)cc3)no2)cc1)C1CC(=O)N(Cc2cccnc2)C1 (stereo not shown)", "system": "aqueous buffer", "quantity": "kinetic solubility", "result": "< 1 µM"}
{"SMILES": "C[C@@H](Oc1ccc(S(C)(=O)=O)cc1C(=O)N1C[C@@H]2C[C@]2(c2cc(C(F)(F)F)on2)C1)C(F)(F)F", "system": "human, Phase I", "setting": "Asian versus Caucasian participants", "quantity": "pharmacokinetic parameters", "result": "no effect"}
{"SMILES": "O=C(CCCCCCC(=O)Nc1ccccc1)NO", "target or system": "HepG2", "assay": "mitochondrial membrane potential", "setting": "concentration not given, Tox21", "quantity": "activity outcome", "result": "inactive"}
{"SMILES": "Cc1c(C#N)cccc1[C@@H](C)Nc1nnc(C)c2cnc(N3CCOCC3)cc12", "target or system": "NCI-H358", "assay": "3D cell viability", "setting": "14 d", "quantity": "IC50", "result": "114 ± 5 nM"}
{"SMILES": "C[Si](C)(C)O[Si](C)(C)O[Si](C)(C)C", "setting": "28 °C", "quantity": "log KAW", "result": 2.13}
{"SMILES": "[11CH3]n1cc(C2=C(c3ccc(Cl)cc3Cl)C(=O)NC2=O)c2ccccc21", "assay": "PET", "system": "nonhuman primates", "quantity": "initial brain uptake", "result": "1.9 SUV"}
{"SMILES": "CC(C)[C@H](N)C(=O)OCC(CO)OCn1cnc2c(=O)[nH]c(N)nc21 (stereo partly shown)", "system": "rat", "setting": "10 mg/kg", "quantity": "oral bioavailability", "result": "92%"}
{"SMILES": "C=CC(=O)N1CCC(C(=O)NCC(=O)N2CCN(c3nc(-c4cnc(N)nc4C(F)F)nc(N4CCOCC4)n3)CC2)CC1", "target or system": "PIK3CA (Homo sapiens, UniProt P42336, E545K)", "assay": "kinase activity", "setting": "1 µM", "quantity": "remaining activity", "result": "0%"}
{"SMILES": "CNC(=O)c1c(C)oc2cc(Oc3ncnc4cc(OC)c(OC)cc34)ccc12", "system": "urine", "setting": "5 mg radiolabelled, time not given", "quantity": "dose recovered", "result": "~60%"}
{"SMILES": "CC(=O)OCC(CCn1cnc2cnc(N)nc21)COC(C)=O", "system": "rat", "setting": "400 mg/kg", "quantity": "oral bioavailability", "result": "41%"}
